Experimental data of several laboratories.
A part holds a random share of what one study measured. Converted amounts (≈) assume the structure as drawn.
Chain of UniProt Q5S007 (whole entry, looked up): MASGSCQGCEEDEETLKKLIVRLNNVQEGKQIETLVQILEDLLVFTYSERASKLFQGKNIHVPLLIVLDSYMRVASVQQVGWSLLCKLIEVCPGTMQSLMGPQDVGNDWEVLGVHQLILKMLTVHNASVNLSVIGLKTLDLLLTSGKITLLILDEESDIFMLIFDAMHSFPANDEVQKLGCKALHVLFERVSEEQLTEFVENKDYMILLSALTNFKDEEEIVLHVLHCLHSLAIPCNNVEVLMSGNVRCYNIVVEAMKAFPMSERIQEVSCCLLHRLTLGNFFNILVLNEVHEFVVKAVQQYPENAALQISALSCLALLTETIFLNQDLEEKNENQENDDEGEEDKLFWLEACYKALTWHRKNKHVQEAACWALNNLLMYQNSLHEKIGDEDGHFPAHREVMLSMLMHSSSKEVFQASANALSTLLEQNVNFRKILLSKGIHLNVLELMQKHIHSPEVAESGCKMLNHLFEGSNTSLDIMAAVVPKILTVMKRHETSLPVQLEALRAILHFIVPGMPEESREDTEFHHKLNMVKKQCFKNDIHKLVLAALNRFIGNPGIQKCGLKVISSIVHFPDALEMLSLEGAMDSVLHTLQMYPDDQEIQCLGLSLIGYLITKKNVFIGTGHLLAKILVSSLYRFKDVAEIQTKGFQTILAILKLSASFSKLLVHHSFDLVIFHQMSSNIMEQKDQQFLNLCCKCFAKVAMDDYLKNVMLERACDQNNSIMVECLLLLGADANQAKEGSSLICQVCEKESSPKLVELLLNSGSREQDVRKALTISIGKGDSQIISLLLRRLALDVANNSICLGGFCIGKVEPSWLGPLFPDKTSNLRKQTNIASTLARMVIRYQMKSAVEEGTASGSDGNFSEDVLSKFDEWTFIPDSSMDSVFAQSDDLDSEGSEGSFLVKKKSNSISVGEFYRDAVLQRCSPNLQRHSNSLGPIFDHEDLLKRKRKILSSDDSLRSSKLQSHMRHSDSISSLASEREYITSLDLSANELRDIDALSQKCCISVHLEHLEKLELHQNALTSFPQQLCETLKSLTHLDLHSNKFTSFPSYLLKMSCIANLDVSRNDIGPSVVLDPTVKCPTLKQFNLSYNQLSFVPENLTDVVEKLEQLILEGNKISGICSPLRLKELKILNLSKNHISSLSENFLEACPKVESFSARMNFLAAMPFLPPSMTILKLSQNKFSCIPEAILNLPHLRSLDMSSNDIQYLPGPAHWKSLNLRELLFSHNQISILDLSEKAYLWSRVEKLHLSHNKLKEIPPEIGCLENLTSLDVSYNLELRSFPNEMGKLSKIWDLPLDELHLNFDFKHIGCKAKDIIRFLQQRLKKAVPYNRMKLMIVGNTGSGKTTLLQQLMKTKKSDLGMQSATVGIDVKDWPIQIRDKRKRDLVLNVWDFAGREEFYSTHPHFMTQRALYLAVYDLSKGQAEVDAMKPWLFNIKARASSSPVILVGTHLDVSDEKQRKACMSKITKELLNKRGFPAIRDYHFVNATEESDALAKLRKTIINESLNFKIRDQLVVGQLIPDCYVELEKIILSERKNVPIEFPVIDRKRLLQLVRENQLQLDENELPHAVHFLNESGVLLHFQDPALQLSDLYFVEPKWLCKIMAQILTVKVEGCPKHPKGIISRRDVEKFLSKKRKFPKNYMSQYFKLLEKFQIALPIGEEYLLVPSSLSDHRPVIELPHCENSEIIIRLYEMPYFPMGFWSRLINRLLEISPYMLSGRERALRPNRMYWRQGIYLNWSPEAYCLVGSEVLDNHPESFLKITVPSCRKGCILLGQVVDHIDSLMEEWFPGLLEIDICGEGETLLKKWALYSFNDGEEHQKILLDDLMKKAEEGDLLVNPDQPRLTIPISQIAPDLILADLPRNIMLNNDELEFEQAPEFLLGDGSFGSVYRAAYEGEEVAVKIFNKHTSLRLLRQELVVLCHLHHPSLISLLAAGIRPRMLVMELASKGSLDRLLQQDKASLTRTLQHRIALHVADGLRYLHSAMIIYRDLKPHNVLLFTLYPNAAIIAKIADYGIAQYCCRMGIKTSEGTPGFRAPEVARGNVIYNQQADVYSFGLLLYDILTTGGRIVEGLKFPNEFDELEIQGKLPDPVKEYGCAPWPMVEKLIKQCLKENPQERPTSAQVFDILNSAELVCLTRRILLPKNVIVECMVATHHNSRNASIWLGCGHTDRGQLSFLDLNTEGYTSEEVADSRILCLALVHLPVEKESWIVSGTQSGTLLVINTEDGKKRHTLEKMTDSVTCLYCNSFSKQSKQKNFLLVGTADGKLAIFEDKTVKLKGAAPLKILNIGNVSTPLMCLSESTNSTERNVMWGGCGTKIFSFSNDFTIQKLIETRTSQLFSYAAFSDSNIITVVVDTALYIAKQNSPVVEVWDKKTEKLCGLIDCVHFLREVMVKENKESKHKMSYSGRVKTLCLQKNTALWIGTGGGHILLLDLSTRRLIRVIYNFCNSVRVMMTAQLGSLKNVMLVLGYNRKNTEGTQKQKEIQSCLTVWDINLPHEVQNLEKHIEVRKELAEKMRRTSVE
Chain of UniProt O00444 (whole entry, looked up): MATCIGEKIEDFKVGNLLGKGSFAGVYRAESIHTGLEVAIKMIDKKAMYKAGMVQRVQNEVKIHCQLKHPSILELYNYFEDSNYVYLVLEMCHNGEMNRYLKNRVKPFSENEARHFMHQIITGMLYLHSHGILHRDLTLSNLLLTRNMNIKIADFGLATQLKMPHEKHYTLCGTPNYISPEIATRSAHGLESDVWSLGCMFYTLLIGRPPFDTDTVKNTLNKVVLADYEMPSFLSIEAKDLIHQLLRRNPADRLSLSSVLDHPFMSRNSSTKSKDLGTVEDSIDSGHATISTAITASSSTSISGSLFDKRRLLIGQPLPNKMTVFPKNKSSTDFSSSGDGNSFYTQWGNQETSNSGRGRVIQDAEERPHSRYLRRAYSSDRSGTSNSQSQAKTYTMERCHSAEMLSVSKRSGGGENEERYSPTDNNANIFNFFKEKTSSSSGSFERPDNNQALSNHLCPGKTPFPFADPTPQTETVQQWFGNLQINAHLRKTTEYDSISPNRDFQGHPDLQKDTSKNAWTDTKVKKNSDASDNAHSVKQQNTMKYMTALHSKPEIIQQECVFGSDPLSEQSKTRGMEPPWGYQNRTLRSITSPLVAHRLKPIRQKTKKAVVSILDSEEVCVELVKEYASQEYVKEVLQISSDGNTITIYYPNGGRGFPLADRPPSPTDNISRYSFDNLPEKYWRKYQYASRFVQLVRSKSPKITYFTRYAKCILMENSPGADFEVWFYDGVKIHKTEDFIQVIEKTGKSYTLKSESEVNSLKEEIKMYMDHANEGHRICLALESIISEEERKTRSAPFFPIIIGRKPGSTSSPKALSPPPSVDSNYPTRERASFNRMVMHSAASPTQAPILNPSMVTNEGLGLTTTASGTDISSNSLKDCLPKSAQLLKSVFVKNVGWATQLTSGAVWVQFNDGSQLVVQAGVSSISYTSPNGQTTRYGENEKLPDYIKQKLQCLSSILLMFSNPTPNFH
Chain of UniProt P42336 (whole entry, unmodified, looked up): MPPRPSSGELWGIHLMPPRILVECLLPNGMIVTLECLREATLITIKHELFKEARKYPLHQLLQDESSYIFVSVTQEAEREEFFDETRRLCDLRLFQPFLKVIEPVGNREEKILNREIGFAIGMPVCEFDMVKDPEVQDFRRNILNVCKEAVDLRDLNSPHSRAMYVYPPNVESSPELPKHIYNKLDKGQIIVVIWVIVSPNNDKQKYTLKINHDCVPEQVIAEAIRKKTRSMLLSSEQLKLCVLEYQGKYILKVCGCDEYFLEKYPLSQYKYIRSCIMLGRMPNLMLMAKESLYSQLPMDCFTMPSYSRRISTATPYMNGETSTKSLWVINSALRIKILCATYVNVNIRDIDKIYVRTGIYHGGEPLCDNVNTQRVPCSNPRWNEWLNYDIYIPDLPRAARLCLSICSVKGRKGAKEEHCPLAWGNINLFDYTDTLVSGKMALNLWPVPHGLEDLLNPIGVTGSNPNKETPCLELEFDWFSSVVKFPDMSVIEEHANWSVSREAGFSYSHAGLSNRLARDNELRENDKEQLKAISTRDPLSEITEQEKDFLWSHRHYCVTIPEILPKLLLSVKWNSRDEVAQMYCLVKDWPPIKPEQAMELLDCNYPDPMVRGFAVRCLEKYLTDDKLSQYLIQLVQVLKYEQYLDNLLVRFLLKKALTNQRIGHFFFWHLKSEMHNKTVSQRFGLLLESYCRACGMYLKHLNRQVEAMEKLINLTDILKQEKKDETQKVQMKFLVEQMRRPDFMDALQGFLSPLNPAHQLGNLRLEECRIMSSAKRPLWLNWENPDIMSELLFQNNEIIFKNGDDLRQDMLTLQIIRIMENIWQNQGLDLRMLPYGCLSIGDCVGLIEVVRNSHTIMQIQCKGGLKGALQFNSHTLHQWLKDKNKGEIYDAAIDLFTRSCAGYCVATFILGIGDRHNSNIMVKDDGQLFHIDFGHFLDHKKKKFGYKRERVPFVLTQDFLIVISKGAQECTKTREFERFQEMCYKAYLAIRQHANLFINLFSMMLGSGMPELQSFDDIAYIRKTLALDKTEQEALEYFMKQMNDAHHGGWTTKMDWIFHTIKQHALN

Series 1
Compound: CCCCC[C@@H](O)CC(=O)N[C@@H]1C(=O)N[C@H](CCCNC(=N)N)C(=O)N[C@@H](CO)C(=O)NCC(=O)N(C)[C@H](Cc2ccccc2)C(=O)N[C@@H](CC(C)C)C(=O)N[C@H](CCCNC(=N)N)C(=O)N[C@@H](CO)C(=O)N[C@H]([C@H](C)O)C(=O)N[C@H](Cc2c[nH]c3ccccc23)C(=O)N[C@@H]([C@@H](C)CC)C(=O)NCC(=O)O[C@@H]1C
Organism: Staphylococcus aureus
Strain: USA300
setting | MIC
added: menaquinone 32 µg/mL | > 64 µg/mL
added: menaquinone 0.0625 µg/mL | 8 µg/mL (≈ 5.27 µM)
added: menaquinone 16 µg/mL | > 64 µg/mL
added: ubiquinone 4 µg/mL | 8 µg/mL (≈ 5.27 µM)
added: menaquinone 8 µg/mL | 64 µg/mL (≈ 42.1 µM)
added: ubiquinone 16 µg/mL | 8 µg/mL (≈ 5.27 µM)
added: menaquinone 64 µg/mL | > 64 µg/mL

Series 2
SMILES: Cn1cncc1[C@](O)(COc1ccc(C#N)cc1-c1ccc(OC(F)(F)F)cc1)c1ccc(C#N)cc1
Observed: cell-free assay
Method: competition with immobilised ligand
Tested at: 1 µM
target | remaining binding
ACVR2B (Homo sapiens, UniProt Q13705) | 100%
PIK3CD (Homo sapiens, UniProt O00329) | 79%
Mast/stem cell growth factor receptor Kit, autoinhibited (KIT, Homo sapiens, UniProt P10721) | 95%
FLT3 (Homo sapiens, UniProt P36888, N841I) | 91%
MAP3K7 (Homo sapiens, UniProt O43318) | 100%
PLK4 (Homo sapiens, UniProt O00444) | 94%
LRRK2 (Homo sapiens, UniProt Q5S007) | 100%
PIK3CA (Homo sapiens, UniProt P42336, M1043I) | 100%

Series 3
Target: Calcium/calmodulin-dependent protein kinase type II subunit alpha (CAMK2A, Homo sapiens, UniProt Q9UQM7)
Chain of UniProt Q9UQM7 (whole entry, looked up): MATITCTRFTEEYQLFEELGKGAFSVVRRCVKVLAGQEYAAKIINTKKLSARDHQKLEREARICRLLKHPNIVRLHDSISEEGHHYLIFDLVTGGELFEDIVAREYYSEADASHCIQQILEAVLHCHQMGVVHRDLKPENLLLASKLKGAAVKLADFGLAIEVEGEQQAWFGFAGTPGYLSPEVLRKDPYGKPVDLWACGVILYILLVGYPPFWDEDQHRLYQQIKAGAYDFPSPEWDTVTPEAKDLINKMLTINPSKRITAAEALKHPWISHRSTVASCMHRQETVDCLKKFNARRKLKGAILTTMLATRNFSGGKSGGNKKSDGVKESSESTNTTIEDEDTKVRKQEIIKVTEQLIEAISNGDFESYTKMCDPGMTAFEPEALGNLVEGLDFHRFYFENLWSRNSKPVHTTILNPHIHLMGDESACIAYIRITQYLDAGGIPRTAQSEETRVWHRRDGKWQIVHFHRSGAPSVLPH
Observed: enzyme activity
Mode: inhibitor
Tested at: 10 µM
Structure (SMILES) | inhibition [%]
CC[C@@]1(O)C(=O)OCc2c1cc1n(c2=O)Cc2cc3cc(OC)ccc3nc2-1 | -17
C/C=C/C#CC#C/C=C/c1ccco1 | -15
C[C@]12CC[C@H](O)C[C@H]1CC[C@@H]1[C@@H]2C[C@@H](O)[C@]2(C)[C@@H](C3=CC(=O)OC3)CC[C@]12O | 27
C/C=C/c1cc(OC)c(OC)cc1OC | 18

Series 4
Cell line: mouse MPNST tumor cells
Method: high-content nuclear imaging
Item: cell number
Tested at: 10 µM
Time: 12 h
Notes: mean of 2 replicates
Reference: plate mean
Direction: higher = more cells
SMILES | nuclei count [z-score]
C[C@]12CCC(=O)C(O)=C1CC[C@@H]1[C@@H]2CC[C@]2(C)C(=O)CC[C@@H]12 | 3.2
CCCCCC[C@H]1C(=O)O[C@H](C)[C@H](NC(=O)c2cccc(NC=O)c2O)C(=O)O[C@@H](C)[C@@H]1OC(=O)CC(C)C | -0.303
COc1cc(N)c(Cl)cc1C(=O)NC1CN2CCC1CC2 (centres unmarked) | 0.59
CCCCN1C2CCC1CC(OC(c1ccc(F)cc1)c1ccc(F)cc1)C2 (centres unmarked) | -6.36
